{"data": "Measurements collected from several papers", "note": "Each line is one published result; not all experiments were run side by side. Numbers after ± are the reported error."}
{"Structure (SMILES)": "COCCOCCOCCOCCOCCOCCOCCOCCC(=O)NCCCc1cc2cc3nc(cc4[nH]c(cc5nc(c(OC)c1[nH]2)C(=O)C5(C)C)cc4CCc1ccc(C(=O)O)cc1)CC3(C)C", "system": "DMF", "setting": "room temperature", "quantity": "kf^−1", "result": "16 ns"}
{"Structure (SMILES)": "COc1cc(NC(C)=O)c2c(c1O)-c1c(OC)c(OC)cc3c1C(C2)N(C)CC3 (centres unmarked)", "system": "rat kidney homogenate", "setting": "50 µg/mL, 24 h, room temperature, post-preparative storage", "quantity": "remaining compound", "result": "91.5 ± 1.9%"}
{"Structure (SMILES)": "OCc1cn(Cc2ccc(-c3noc(-c4ccc(OCC[18F])c(C(F)(F)F)c4)n3)cc2)nn1", "system": "Lewis rats, female, hippocampus", "setting": "intravenous, 5 min", "quantity": "brain uptake", "result": "0.43 %ID/g"}
{"Structure (SMILES)": "C=CC(=O)Nc1cc(Nc2nccc(-c3cn(C4CC4)c4ccccc34)n2)c(OC)cc1NC", "assay": "radio-HPLC, co-eluting peaks pooled", "system": "human male, urine", "setting": "oral, 110 mg, 0 to 96 h, sample holds 4.16% dose", "how to read": "reference: dose", "quantity": "excreted amount", "result": "0.07%"}
{"Structure (SMILES)": "CCCC[C@H](NC(C)=O)C(=O)N[C@H]1CC(=O)NCCCC[C@@H](C(=O)N[C@@H](C(=O)N2CCC[C@@H]2C(N)=O)C(C)C)NC(=O)[C@H](Cc2c[nH]c3ccccc23)NC(=O)[C@H](CCCN=C(N)N)NC(=O)[C@@H](Cc2ccc3ccccc3c2)NC(=O)[C@@H]2CCCN2C1=O", "system": "Beagle dog, both sexes, plasma", "setting": "subcutaneous, once daily, 0.75 mg/kg, day 5", "quantity": "AUC", "result": "11600 ± 1500 ng·h/mL"}
{"Structure (SMILES)": "CC(O)c1nc(-c2ccc3c(c2)CCC3NC(=O)c2cnn(C)c2)no1 (centres unmarked)", "system": "human, plasma", "setting": "oral, 20 mg of aficamten", "how to read": "reference: aficamten", "quantity": "AUC0-inf reduction", "result": "~44%"}
{"Structure (SMILES)": "CC(C)[C@H](NC(=O)[C@@H]1CCCN1C(=O)[C@H](CCCNC(=N)N)NC(=O)[C@H](CS)NC(=O)[C@H](Cc1c[nH]c2ccccc12)NC(=O)[C@H](CCCNC(=N)N)NC(=O)[C@@H](Cc1ccccc1)NC(=O)[C@H](Cc1c[nH]cn1)NC(=O)[C@H](CCC(=O)O)NC(=O)[C@H](CS)NC(=O)[C@H](CS)NC(=O)[C@@H]1CC(=O)N[C@@H](CCCNC(=N)N)C(=O)NCC(=O)N[C@@H](CC(=O)O)C(=O)N[C@H](Cc2ccc(O)cc2)C(=O)N1)C(N)=O [technetium-99m labelled]", "assay": "RP-HPLC", "system": "mouse serum", "setting": "24 h, 37 °C", "quantity": "serum stability", "result": "stable"}
{"Structure (SMILES)": "NC[C@@H](C(=O)Nc1ccc(-c2cn[nH]c2)cc1)c1ccccc1", "assay": "OECD 405 eye irritation", "system": "New Zealand White rabbit, eye", "setting": "topical, 0.1%, 8 h (day 1)", "how to read": "direction not given", "quantity": "total eye irritation score", "result": 0}
{"Structure (SMILES)": "NC(=O)[C@@H](CCCCNC(=O)CNC(=O)CCC(=O)NCCc1c[nH]cn1)NC(=O)[C@@H](CCC(=O)O)NC(=O)[C@@H](CCCCNC(=O)CNC(=O)CCC(=O)NCCc1c[nH]cn1)NC(=O)[C@@H](Cc1ccc(O)cc1)NC(=O)CN1CCN(CC(=O)O)CCN(CC(=O)O)CCN(CC(=O)O)CC1 [indium-111 labelled]", "assay": "SPECT", "system": "human, CEACAM5-expressing tumours, tumour", "setting": "intravenous, dose not given, 24 h, with: TF2 pretargeting 150 mg", "quantity": "tumour activity concentration", "result": "5.9 %ID/kg"}
{"Structure (SMILES)": "C[Si](C)(C)C[C@@H](CN)CC(=O)O", "system": "Sprague-Dawley rat, male, brain", "setting": "oral, 30 mg/kg, estimated as Cmax x Kp", "quantity": "brain Cmax", "result": "1500 nM"}
{"Structure (SMILES)": "Cl.NC(CO)CCc1ccccc1Cl (racemic)", "setting": "-20 °C", "quantity": "storage stability", "result": "stable"}
{"Structure (SMILES)": "CCCCCCCCCCCCCCCC(=O)NCCOCCOCCOCCOCCOCCOCCOCCOCCC(=O)NCCCC[C@H](NC(=O)CNC(=O)[C@@H]1CSSC[C@H](N)C(=O)N[C@@H](Cc2ccc(O)cc2)C(=O)N[C@@H]([C@@H](C)CC)C(=O)N[C@@H](CCC(N)=O)C(=O)N[C@@H](CC(N)=O)C(=O)N1)C(=O)NCC(N)=O", "system": "rat", "setting": "subcutaneous depot, 10 mg/kg", "quantity": "brain to plasma AUC ratio", "result": 0.004}
{"Structure (SMILES)": "CCC(=C(c1ccc(Cl)cc1)c1ccc(OCCN2CCOCC2)cc1)c1ccc(OC)cc1", "system": "female C57BL/6 mouse, plasma", "setting": "oral, 400 mg/kg, single dose", "quantity": "AUC(0-inf)", "result": "55400 ng·h/mL"}
{"Structure (SMILES)": "Oc1ccc2ccccc2c1/N=N/c1ccc(/N=N/c2ccccc2)cc1", "system": "extracted rat blood QC samples", "setting": "0.2 µg/L, 8 h, room temperature, short-term stability", "quantity": "measured concentration", "result": "0.218 µg/L"}
{"Structure (SMILES)": "CCc1cc2c(N3CCN([11C](=O)c4ccc(-c5ccccc5)cc4)CC3)nc(N3CCNC(=O)C3)nc2s1", "assay": "PET", "system": "Wistar rats, male, brain", "setting": "intravenous, baseline", "quantity": "SUVmax", "result": 0.04}
{"Structure (SMILES)": "CCc1c2c(nc3ccc(O)cc13)-c1cc3c(c(=O)n1C2)COC(=O)[C@]3(O)CC", "system": "human patients, plasma", "setting": "intravenous, 177 mg/m^2 of parent drug", "quantity": "Tmax", "result": "2.34 h"}
{"Structure (SMILES)": "C#CCN(CCCNC(=O)CCCCC[N+]1=C(/C=C/C2=C(Cl)C(=C/C=C3\\N(CCCCCC(=O)[O-])c4ccccc4C3(C)C)/CCC2)C(C)(C)c2ccccc21)CCCOc1ccc(Cl)cc1Cl", "system": "processed mouse plasma", "setting": "0.01 µg/mL nominal, 4 h, in autosampler", "quantity": "concentration", "result": "9.8 ± 1 ng/mL"}
{"Structure (SMILES)": "CC(=O)N[C@H](CC(=O)O)C(=O)N[C@H](Cc1c[nH]c2ccccc12)C(=O)N[C@H](Cc1ccccc1)C(=O)N[C@H](CCCCN)C(=O)N[C@H](C)C(=O)N[C@H](Cc1ccccc1)C(=O)N[C@H](Cc1ccc(O)cc1)C(=O)N[C@H](CC(=O)O)C(=O)N[C@H](CCCCN)C(=O)N[C@@H](C(=O)N[C@H](C)C(=O)N[C@H](CCC(=O)O)C(=O)N[C@H](CCCCN)C(=O)N[C@H](Cc1ccccc1)C(=O)N[C@H](CCCCN)C(=O)N[C@H](CCC(=O)O)C(=O)N[C@H](C)C(=O)N[C@H](Cc1ccccc1)C(N)=O)C(C)C", "system": "statin-treated high-risk CHD women, plasma", "setting": "oral, 100 mg daily, day 1, 0 to 2 h, mean, detected subjects", "quantity": "Cmax", "result": "6.05 ng/mL"}
{"Structure (SMILES)": "COc1ccc(C=NCCCN(C)CCN(C)CCCN=Cc2ccc(OC)cc2[O-])c([O-])c1.[67Ga+3]", "system": "rat", "setting": "intravenous, 1 min", "how to read": "reference: heart over lung", "quantity": "tissue uptake ratio", "result": "1.97 ± 0.29"}
{"Structure (SMILES)": "COC(=O)c1ccc(-c2cn(Cc3cc(Cl)ccc3O[11CH3])nn2)cc1", "assay": "PET, two-tissue compartment model", "system": "rhesus monkey, brain Putamen", "setting": "dose not given", "quantity": "distribution volume", "result": "0.64 mL/cm³"}
{"Structure (SMILES)": "CC(C)C[C@@H](NC(=O)[C@H](NC(=O)[C@H]1CCCN1)[C@H](C)O)C(=O)N[C@H](Cc1c[nH]cn1)C(=O)N[C@@H](C(=O)N[C@H](Cc1c[nH]cn1)C(=O)N[C@H](CC(N)=O)C(=O)N[C@H](CCCNC(=N)N)C(=O)N[C@H](CCCNC(=N)N)C(=O)N[C@H](CCCNC(=N)N)C(=O)N[C@H](CCCNC(=N)N)C(=O)N[C@H](CCCNC(=N)N)C(N)=O)[C@H](C)O", "system": "beagle dog, plasma", "setting": "intravenous, 3 mg/kg, single dose", "quantity": "clearance", "result": "1.2 mL/min/kg"}
{"Structure (SMILES)": "Cn1c(=O)oc2ccc(-c3ccc(CC(C#N)NC(=O)C4CNCCCO4)c(F)c3)cc21 (centres unmarked)", "assay": "refers to: total protein decreased", "system": "human", "setting": "60 mg single dose, fasted", "quantity": "subjects with TEAE", "result": "0%"}
{"Structure (SMILES)": "O=C(O)C1OC(OC2C(COS(=O)(=O)O)OC(OC3C(C(=O)O)OC(OC4C(COS(=O)(=O)O)OC(OC5C(C(=O)O)OC(OC6C(COS(=O)(=O)O)OC(OC7C(C(=O)O)OC(OC8C(COS(=O)(=O)O)OC(OC9C(C(=O)O)OC(OC%10C(COS(=O)(=O)O)OC(OC%11C(C(=O)O)OC(Oc%12ccc([N+](=O)[O-])cc%12)C(O)C%11O)C(NS(=O)(=O)O)C%10O)C(OS(=O)(=O)O)C9O)C(NS(=O)(=O)O)C8O)C(OS(=O)(=O)O)C7O)C(NS(=O)(=O)O)C6O)C(OS(=O)(=O)O)C5O)C(NS(=O)(=O)O)C4O)C(OS(=O)(=O)O)C3O)C(NS(=O)(=O)O)C2OS(=O)(=O)O)C(O)C(O)C1OC1OC(COS(=O)(=O)O)C(O)C(O)C1NS(=O)(=O)O (centres unmarked)", "system": "rats, serum", "setting": "intravenous, 3600 µg/kg/day for 7 days, day 8", "quantity": "total bilirubin", "result": "0.1 ± 0.01 mg/dL"}
{"Structure (SMILES)": "CC(C)[C@H](NC(=O)CNC(=O)[C@H](CCC(N)=O)NC(=O)[C@H](C)N)C(=O)O", "system": "human, plasma", "setting": "intravenous infusion, 15 mg/kg/h, 2 h infusion, geometric mean", "quantity": "Vd", "result": "19 L/kg"}
{"Structure (SMILES)": "C=C(c1ncc(C(=O)O)cn1)c1cc2c(cc1C)C(C)(C)CCC2(C)C", "system": "Sprague-Dawley rat, male", "setting": "oral, 100 mg/kg, 24 h, sesame oil vehicle", "quantity": "blood cholesterol", "result": "47 ± 7.5 mg/dL"}
{"Structure (SMILES)": "CC(C)(O)c1ncc([S@](N)(=O)=NC(=O)Nc2c3c(cc4c2CCC4)CCC3)s1", "system": "healthy human, fasted", "setting": "oral, 300 mg single dose, spray-dried dispersion", "quantity": "Cmax", "result": "25600 ng/mL"}
{"Structure (SMILES)": "CSCC(NC(=O)c1cc(Cl)ccc1Cl)C(=O)NC(CC(C)C)B(O)O (centres unmarked)", "system": "bile duct-cannulated rat", "setting": "0.30 mg/kg of prodrug", "quantity": "detection in bile", "result": "not detected"}
{"Structure (SMILES)": "N=C(N)NCCC[C@@H]1NC(=O)[C@H](Cc2c[nH]c3ccccc23)NC(=O)[C@@H](CC2CCCCC2)NC(=O)[C@@H]2CCCN2C(=O)[C@@H](NC(=O)CCc2ccccc2)CCCNC1=O", "system": "C57BL/6J mice, brain", "setting": "oral, 1 mg/kg, two-compartment model", "quantity": "absorption rate constant", "result": "11.3 h⁻¹"}
{"Structure (SMILES)": "O=C([O-])CN1CCN(CC(=O)[O-])CCN(CC(=O)NCC2CCC(C(=O)NC(Cc3ccc4ccccc4c3)C(=O)NCCCCC(NC(=O)NC(CCC(=O)O)C(=O)O)C(=O)O)CC2)CCN(CC(=O)[O-])CC1.[44Sc+3] (centres unmarked)", "assay": "PET/CT", "system": "human patients, kidney", "setting": "dose not given", "quantity": "SUV", "result": 14}
{"note": "Excerpt of the above:"}
{"Structure (SMILES)": "Cn1c(=O)oc2ccc(-c3ccc(CC(C#N)NC(=O)C4CNCCCO4)c(F)c3)cc21 (centres unmarked)", "assay": "refers to: total protein decreased", "system": "human", "setting": "60 mg single dose, fasted", "quantity": "subjects with TEAE", "result": "0%"}
{"Structure (SMILES)": "N=C(N)NCCC[C@@H]1NC(=O)[C@H](Cc2c[nH]c3ccccc23)NC(=O)[C@@H](CC2CCCCC2)NC(=O)[C@@H]2CCCN2C(=O)[C@@H](NC(=O)CCc2ccccc2)CCCNC1=O", "system": "C57BL/6J mice, brain", "setting": "oral, 1 mg/kg, two-compartment model", "quantity": "absorption rate constant", "result": "11.3 h⁻¹"}
{"Structure (SMILES)": "Oc1ccc2ccccc2c1/N=N/c1ccc(/N=N/c2ccccc2)cc1", "system": "extracted rat blood QC samples", "setting": "0.2 µg/L, 8 h, room temperature, short-term stability", "quantity": "measured concentration", "result": "0.218 µg/L"}
{"Structure (SMILES)": "COC(=O)c1ccc(-c2cn(Cc3cc(Cl)ccc3O[11CH3])nn2)cc1", "assay": "PET, two-tissue compartment model", "system": "rhesus monkey, brain Putamen", "setting": "dose not given", "quantity": "distribution volume", "result": "0.64 mL/cm³"}
{"Structure (SMILES)": "NC[C@@H](C(=O)Nc1ccc(-c2cn[nH]c2)cc1)c1ccccc1", "assay": "OECD 405 eye irritation", "system": "New Zealand White rabbit, eye", "setting": "topical, 0.1%, 8 h (day 1)", "how to read": "direction not given", "quantity": "total eye irritation score", "result": 0}
